# Measurements from different studies.
# Numbered parts are unrelated; each lists some results of a single study. Several values in a cell are separate wells, animals, samples, runs or records.
# Chain of UniProt P46934 (whole entry, looked up): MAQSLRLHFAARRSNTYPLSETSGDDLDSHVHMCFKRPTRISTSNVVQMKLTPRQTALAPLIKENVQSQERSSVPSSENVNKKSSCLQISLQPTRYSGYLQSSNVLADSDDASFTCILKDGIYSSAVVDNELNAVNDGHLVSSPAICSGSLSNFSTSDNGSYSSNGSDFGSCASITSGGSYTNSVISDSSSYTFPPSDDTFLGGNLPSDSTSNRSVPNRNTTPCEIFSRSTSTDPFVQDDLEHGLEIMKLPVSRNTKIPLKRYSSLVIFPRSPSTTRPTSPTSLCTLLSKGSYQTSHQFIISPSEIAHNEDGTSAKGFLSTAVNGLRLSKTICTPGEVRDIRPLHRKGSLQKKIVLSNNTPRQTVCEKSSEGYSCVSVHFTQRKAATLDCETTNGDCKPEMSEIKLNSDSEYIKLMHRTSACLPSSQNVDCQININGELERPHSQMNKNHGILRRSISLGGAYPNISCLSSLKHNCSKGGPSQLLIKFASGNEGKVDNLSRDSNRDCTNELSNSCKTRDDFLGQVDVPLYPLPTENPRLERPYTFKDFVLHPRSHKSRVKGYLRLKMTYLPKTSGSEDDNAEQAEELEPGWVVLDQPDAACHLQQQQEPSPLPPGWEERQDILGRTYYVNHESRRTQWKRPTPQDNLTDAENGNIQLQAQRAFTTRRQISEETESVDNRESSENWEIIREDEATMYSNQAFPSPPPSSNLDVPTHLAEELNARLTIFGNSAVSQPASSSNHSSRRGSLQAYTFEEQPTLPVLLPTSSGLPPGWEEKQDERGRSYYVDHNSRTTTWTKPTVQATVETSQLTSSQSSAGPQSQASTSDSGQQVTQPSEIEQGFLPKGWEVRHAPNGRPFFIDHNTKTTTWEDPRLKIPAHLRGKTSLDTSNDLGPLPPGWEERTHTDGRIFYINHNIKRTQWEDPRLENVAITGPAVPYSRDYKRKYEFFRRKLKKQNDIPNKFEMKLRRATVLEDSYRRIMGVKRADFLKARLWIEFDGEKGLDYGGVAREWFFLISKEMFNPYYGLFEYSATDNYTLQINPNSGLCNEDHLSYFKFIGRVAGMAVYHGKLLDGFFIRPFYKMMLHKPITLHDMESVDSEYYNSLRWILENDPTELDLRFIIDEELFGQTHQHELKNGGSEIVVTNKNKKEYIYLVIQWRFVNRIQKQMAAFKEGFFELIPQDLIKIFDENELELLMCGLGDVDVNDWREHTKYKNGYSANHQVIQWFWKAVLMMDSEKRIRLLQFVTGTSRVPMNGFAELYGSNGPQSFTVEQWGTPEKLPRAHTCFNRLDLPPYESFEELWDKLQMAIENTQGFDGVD
# Chain of UniProt Q9UKS7 (whole entry, looked up): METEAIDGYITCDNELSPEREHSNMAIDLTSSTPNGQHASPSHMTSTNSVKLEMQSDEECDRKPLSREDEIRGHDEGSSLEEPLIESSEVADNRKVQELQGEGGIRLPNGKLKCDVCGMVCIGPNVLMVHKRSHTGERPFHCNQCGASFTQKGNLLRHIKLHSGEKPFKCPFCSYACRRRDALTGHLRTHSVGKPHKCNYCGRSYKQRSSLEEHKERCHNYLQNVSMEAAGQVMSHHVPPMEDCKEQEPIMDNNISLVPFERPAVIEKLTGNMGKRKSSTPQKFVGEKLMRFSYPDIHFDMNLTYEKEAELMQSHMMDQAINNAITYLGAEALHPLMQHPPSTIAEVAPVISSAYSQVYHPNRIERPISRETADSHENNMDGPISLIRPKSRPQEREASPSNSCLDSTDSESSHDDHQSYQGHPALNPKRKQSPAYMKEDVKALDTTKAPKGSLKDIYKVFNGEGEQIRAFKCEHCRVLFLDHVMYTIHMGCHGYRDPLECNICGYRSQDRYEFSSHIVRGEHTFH
# Chain of UniProt Q96SW2 (whole entry, looked up): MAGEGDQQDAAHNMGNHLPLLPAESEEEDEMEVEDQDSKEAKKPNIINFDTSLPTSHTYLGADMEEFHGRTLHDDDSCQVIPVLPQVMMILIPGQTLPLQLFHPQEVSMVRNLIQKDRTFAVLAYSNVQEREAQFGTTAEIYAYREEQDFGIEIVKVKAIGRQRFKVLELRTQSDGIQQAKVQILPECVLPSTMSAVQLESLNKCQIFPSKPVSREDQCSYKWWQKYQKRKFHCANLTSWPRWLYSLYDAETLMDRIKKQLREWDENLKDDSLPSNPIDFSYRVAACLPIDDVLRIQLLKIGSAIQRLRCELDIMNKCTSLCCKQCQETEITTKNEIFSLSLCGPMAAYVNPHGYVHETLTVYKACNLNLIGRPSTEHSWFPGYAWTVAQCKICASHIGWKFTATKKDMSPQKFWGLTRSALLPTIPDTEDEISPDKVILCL

# Study 1 — organism: Staphylococcus aureus; strain: USA300; concentration: 2 x MIC
# Structure (SMILES): CCCCC[C@@H]1CC(=O)N[C@@H](C(C)C)C(=O)N[C@H](CCCNC(=N)N)C(=O)N[C@@H](CO)C(=O)NCC(=O)N(C)[C@H](Cc2ccccc2)C(=O)N[C@@H](CC(C)C)C(=O)N[C@H](CCCNC(=N)N)C(=O)N[C@@H](CC(N)=O)C(=O)N[C@H](C(C)C)C(=O)N[C@H](Cc2c[nH]c3ccccc23)C(=O)NCCCC(=O)O1
conditions,viable cells
180 min,700 CFU/mL and 1000 CFU/mL and 1400 CFU/mL
15 min,3600 CFU/mL and 4000 CFU/mL and 3500 CFU/mL
60 min,1400 CFU/mL and 800 CFU/mL and 1000 CFU/mL
360 min,400 CFU/mL and 500 CFU/mL and 600 CFU/mL

# Study 2
# Compound: C#CCN1C(=O)C(O)(C(=O)O)Oc2cc(F)ccc21 (stereo not drawn)
organism,test,system,conditions,inhibition
Oryza sativa,fresh weight,,"soil surface spray, 150 g ai/ha, 21 days, pre-emergence crop safety",1.9% and 1% and 2.5%
Zea mays,fresh weight,,"soil surface spray, 150 g ai/ha, 21 days, pre-emergence crop safety",6.4% and 5.5% and 5.8%
Arabidopsis thaliana,hypocotyl length,Col-0,"3.125 µg/mL, 7 days, seed germination, dark",10.1%
Triticum aestivum,fresh weight,,"soil surface spray, 150 g ai/ha, 21 days, pre-emergence crop safety",14% and 12% and 11.5%
Arabidopsis thaliana,hypocotyl length,Col-0,"6.25 µg/mL, 7 days, seed germination, dark",19.4%
Alopecurus aequalis,fresh weight,,"150 g ai/ha, pre-emergence treatment",54.5% and 46% and 56.1%

# Mixed results
Structure (SMILES),target,test,system,conditions,quantity,result
CCOC(=O)/C=C/CN(CCCCN1c2ccccc2CCc2ccc(Cl)cc21)Cc1ccccc1.O=C(O)/C=C\C(=O)O,"E3 ubiquitin-protein ligase NEDD4, HECT domain (Homo sapiens, UniProt P46934)","ubiquitination, inhibitor, TR-FRET",,HECT domain,IC50,inactive
Cn1cc(-c2cccc(CN3CCC4(CC3)COc3c4ccc4c3CN(C3CCC(=O)NC3=O)C4=O)c2)cn1 (stereo not drawn),"CRBN/Zinc finger protein Helios (Homo sapiens, UniProt Q96SW2+Q9UKS7)","degrader, HiBiT",HEK293,333.3 nM,protein remaining,10.9%

# Excerpt of the above (mixed results):
Structure (SMILES),target,test,system,conditions,quantity,result
Cn1cc(-c2cccc(CN3CCC4(CC3)COc3c4ccc4c3CN(C3CCC(=O)NC3=O)C4=O)c2)cn1 (stereo not drawn),"CRBN/Zinc finger protein Helios (Homo sapiens, UniProt Q96SW2+Q9UKS7)","degrader, HiBiT",HEK293,333.3 nM,protein remaining,10.9%
